Results of several laboratories.
Compare with care: the assays were run in different laboratories. Numbers after ± are the reported error.

Compound	test	system	conditions	scale	endpoint	value
O=C(O)CN1CCNCCNCCN(CC(=O)O)CC1	pH-potentiometric titration	–	25 °C, 0.1 M KCl	–	sum log K3 + log K4	5.6
CC(C)(O)c1ncc([S@](N)(=O)=NC(=O)Nc2c3c(cc4c2CCC4)CCC3)s1	–	healthy human volunteers, plasma	oral, 200 mg once daily, day 14, spray-dried dispersion	–	dose-normalised AUC(0-tau)	905 ng·h/mL/mg
CC(C)(C)ONc1nc(Nc2ccnc(C(F)(F)F)c2)nc(-c2cccc(C(F)(F)F)n2)n1	–	female Balb/cA nude mice xenograft, tumour	oral, 18.05 mg/kg	–	half-life	19.8 h
C[N+](C)(C)CC(CC(=O)[O-])OC(=O)CCC(=O)Nc1ccn([C@@H]2O[C@H](CO)[C@@H](O)C2(F)F)c(=O)n1 (stereo partly drawn)	–	THU-treated rat plasma	3200.00 ng/mL, 1 h, 20 °C, bench-top stability, high QC	–	measured concentration	3170 ± 150 ng/mL
C#CCOc1ccc(/C=C2\SC(=O)N(CC(=O)NCc3ccccc3)C2=O)cc1	inverse Kirkwood-Buff integrals	binary solvent mixture	298.15 K, mole fraction x1 1.00	–	Kirkwood-Buff integral G2,3	-325 cm³/mol
COCCOCCOCCOc1ccc(/C=C/C2=[N+]3C(=C(c4cc(OC)cc(OC)c4)c4c(C)c(I)c(/C=C/c5ccc(OCCOCCOCCOC)cc5)n4[B-]3(F)F)C(C)=C2I)cc1	–	DMSO	–	–	Stokes shift	627 cm⁻¹
CCCC[C@H](NC(=O)[C@H](CC(C)C)N(C)C(=O)CNC(=O)[C@@H](NC(=O)[C@H](Cc1ccccc1)NC(=O)[C@H](CCCCN)NC(=O)[C@@H](N)CC(=O)O)C(C)C)C(N)=O	–	anaesthetised Sinclair minipigs	IV, 0.3 µg/kg	relative to: baseline	mean arterial pressure change	-11.9 ± 4.04%
COc1cc2c(cc1OC)CN(CCCCn1ccc3cc(OCC[18F])ccc31)C2	–	ICR mice, male, lung	intravenous, 2 min	–	uptake	61.2 ± 6.95 %ID/g
CCCC[C@@H]1NC(=O)[C@@H](NC(=O)[C@H](CCC(=O)O)NC(=O)CNC(=O)CN2CCN(CC(=O)O)CCN(CC(=O)O)CCN(CC(=O)O)CC2)CCCCNC(=O)C[C@@H](C(N)=O)NC(=O)[C@H](C(C)C)NC(=O)[C@@H]2CCCN2C(=O)[C@H](CCCNC(=N)N)NC(=O)CNC(=O)[C@H](Cc2c[nH]c3ccccc23)NC(=O)[C@H](CCCNC(=N)N)NC(=O)[C@@H](Cc2ccccc2)NC(=O)[C@H](Cc2c[nH]cn2)NC(=O)[C@H](CCC(=O)O)NC1=O [gallium-67 labelled]	–	C57 mice with B16/F1 melanoma, lung	intravenous, 0.5 h	–	tissue uptake	1.44 ± 0.47 %ID/g
COC(=O)c1ccc(CCc2cc3cc4nc(c(OC)c5[nH]c(cc6nc(cc2[nH]3)CC6(C)C)cc5CCCNC(=O)OC(C)(C)C)C(=O)C4(C)C)cc1	–	DMF	room temperature	–	Qy absorption maximum	679 nm
[11CH3]c1ccc2nc(C3CCC3)n(-c3ccc4[nH]ncc4c3)c2n1	–	standard human adult, ovaries	–	–	absorbed radiation dose	3.8 µSv/MBq
CC(C)C[C@@H]1NC(=O)[C@@H](Cc2ccccc2)NC(=O)[C@H](CCN)NC(=O)[C@@H](NC(=O)[C@H](CN)NC(=O)[C@@H](NC(=O)C(CCN)c2cccc(Cl)c2)[C@@H](C)O)CCNC(=O)[C@H]([C@@H](C)O)NC(=O)[C@H](CCN)NC(=O)[C@H](CCN)NC1=O (stereo partly drawn)	–	CD-1 mouse male, kidney	subcutaneous, 17.2 mg/kg, 4 h	–	tissue concentration	589000 ng/g
CCC(=O)N[C@@H](C)C(=O)OCC(=O)N[C@@H](C)C(=O)O	–	water	pH 5, 37 °C	–	depolymerization half-life	583 h
[11CH3]Nc1ccc(-c2nc3ccc(O)cc3o2)cn1	PET	cynomolgus monkey	–	–	brain exposure	~1 % injected radioactivity
CCc1cc(Nc2nc(-c3ccc(-n4cnc(C)c4)c(F)c3)cs2)c(C)cc1C	–	human, both sexes, plasma	oral, 200 mg, day 1, multiple dose, geometric mean	–	apparent terminal volume (Vz/F)	522000 mL
C=CC(=C)CC[C@]1(C)[C@H](C)C[C@H](O)[C@@]23C(=C[C@H](OC(=O)C(C)C)C[C@@H]12)[C@@H](OC(C)=O)O[C@H]3OC(C)=O	haemolysis	–	100 µM	–	haemolysis	17.5%
CCc1nc(C(N)=O)c(Nc2ccc(N3CCC(N4CCNCC4)CC3)c(OC)c2)nc1NC1CCOCC1	metabolite profiling	human, advanced solid tumours, feces	oral, 120 mg of [14C]-gilteritinib	–	share of radioactivity	6.3 to 10.3%
CCOc1ccc2c(c1)C(C)=CC(C)(C)N2c1cc(OCC)cc2c1NC(C)(C)C=C2C	LC-MS/MS	cattle, Holstein, muscle	oral, 50 mg/kg complete feed of ethoxyquin, 42 days, highest value	–	residue concentration	5.8 ng/g
O=C1CCc2ccc(NS(=O)(=O)c3cccc(Oc4ccccc4)c3)cc2N1	–	C57BL/6 mouse, brain	subcutaneous, 3 mg/kg	–	half-life	3.53 h
NC[C@@H](C(=O)Nc1ccc(-c2cn[nH]c2)cc1)c1ccccc1	OECD 405 eye irritation	New Zealand White rabbit, eye	topical, 0.1%, 97 h (day 5), scale 0 to 2	direction not given	iris score	0
CC[C@@H](C)N([11CH3])C(=O)c1nc(-c2ccccc2)c2ccccc2n1	–	rhesus monkey male, plasma	intravenous, TSPO preblock	–	time to 50% parent radioligand in plasma	9.4 min

Compound	test	system	conditions	scale	endpoint	value
N=C(N)NCCC[C@@H]1NC(=O)[C@H](Cc2c[nH]c3ccccc23)NC(=O)[C@@H](CC2CCCCC2)NC(=O)[C@@H]2CCCN2C(=O)[C@@H](NC(=O)CCc2ccccc2)CCCNC1=O	two-compartment model	C57BL/6J mice, plasma	intravenous, 1 mg/kg	–	central volume (V1/F)	0.87 mL
C=CC(=O)Nc1cc(Nc2nccc(-c3cn(C4CC4)c4ccccc34)n2)c(OC)cc1N(C)CCNC	radio-HPLC	human male, urine	oral, 110 mg, 0 to 48 h, sample holds 2.97% dose	relative to: sample radioactivity	share of radioactivity	26.7%
CC1OC2OC3C4=C(OC3(C)C12O)C(=O)c1c(O)cccc1C4=O (stereo not drawn)	haemolysis	human	1.55 mM, 1 h	–	haemolysis	< 2%
CCCC[C@H](NC(C)=O)C(=O)N[C@H]1CC(=O)NCCCC[C@@H](C(=O)N[C@@H](C(=O)N2CCC[C@@H]2C(N)=O)C(C)C)NC(=O)[C@H](Cc2c[nH]c3ccccc23)NC(=O)[C@H](CCCN=C(N)N)NC(=O)[C@@H](Cc2ccc3ccccc3c2)NC(=O)[C@@H]2CCCN2C1=O	–	healthy dogs, plasma	subcutaneous, 2.25 mg/kg per day, day 5, 2 h post-dose, median	–	plasma histamine	16.3 ng/mL
Cn1c(=O)oc2ccc(-c3ccc(CC(C#N)NC(=O)C4CNCCCO4)c(F)c3)cc21 (stereo not drawn)	–	human	oral, 40 mg once daily, TEAE, multiple ascending dose	–	WBC count decreased incidence	11.1%
CC(C)c1cnc(-c2cc(Cl)ccc2F)cc1Nc1ccncc1C(=O)NC(CO)CO	item: Myalgia	solid tumour patients	oral, dose not given, phase I monotherapy	–	treatment-related adverse events	7.1%
COc1ccnc(C[S+]([O-])c2nc3cc(-n4cccc4)ccc3[nH]2)c1C (stereo not drawn)	–	male Sprague Dawley rats, plasma	oral, 10 mg/kg ilaprazole racemate	–	CL/F	418 ± 170 mL/min/kg
COc1ccc(-c2cc(=O)c3c(O)cc(O[C@@H]4O[C@H](CO[C@@H]5O[C@@H](C)[C@H](O)[C@@H](O)[C@H]5O)[C@@H](O)[C@H](O)[C@H]4O)cc3o2)cc1	freeze-thaw stability	rat plasma	3 days, high QC, 3 freeze-thaw cycles	–	measured concentration	2962 ± 18.5 ng/mL
CCCC(CCC)NC(=O)c1ccc(OC2OC(C(=O)O)C(O)C(O)C2O)c(OC)c1 (stereo not drawn)	LC-MS	Sprague-Dawley rats, pooled sexes, plasma	oral, 200 mg/kg of parent drug, 1 h	relative to: total peak area	metabolite peak area	17.4%
CCCCCCCC(=O)OC[C@H](NC(=O)[C@H](CO)NC(=O)CN)C(=O)N[C@@H](Cc1ccccc1)C(=O)N[C@@H](CC(C)C)C(=O)N[C@@H](CO)C(=O)N1CCC[C@H]1C(=O)N[C@@H](CCC(=O)O)C(=O)N[C@@H](Cc1cnc[nH]1)C(=O)N[C@@H](CCC(N)=O)C(=O)N[C@@H](CCCNC(=N)N)C(=O)N[C@H](C(=O)N[C@@H](CCC(N)=O)C(=O)N[C@@H](CCC(N)=O)C(=O)N[C@@H](CCCNC(=N)N)C(=O)N[C@@H](CCCCN)C(=O)N[C@@H](CCC(=O)O)C(=O)N[C@@H](CO)C(=O)N[C@@H](CCCCN)C(=O)N[C@@H](CCCCN)C(=O)N1CCC[C@H]1C(=O)N1CCC[C@H]1C(=O)N[C@@H](C)C(=O)N[C@@H](CCCCN)C(=O)N[C@@H](CC(C)C)C(=O)N[C@@H](CCC(N)=O)C(=O)N1CCC[C@H]1C(=O)N[C@@H](CCCNC(=N)N)C(=O)O)C(C)C	–	chronic HFrEF patients non-paced	intravenous infusion, 0.1 µg/kg/min, 60 min of infusion	–	heart rate	71.3 ± 13.5 bpm
C=CC(=O)Nc1cc(Nc2nccc(-c3cn(C4CC4)c4ccccc34)n2)c(OC)cc1NC	LC-RAM/HRMS	human male, plasma	oral, 110 mg, 24 h	relative to: total radioactivity	share of radioactivity	3.23%
O=C([O-])CN1CCN(CC(=O)[O-])CCN(CC(=O)NCC2CCC(C(=O)NC(Cc3ccc4ccccc4c3)C(=O)NCCCCC(NC(=O)NC(CCC(=O)O)C(=O)O)C(=O)O)CC2)CCN(CC(=O)[O-])CC1.[44Sc+3] (stereo not drawn)	PET/CT dosimetry	human patients, liver	mean of 4 patients	–	residence time	0.348 h
C=C(c1cc(F)c(C(=O)O)c(F)c1)c1cc2c(cc1C)C(C)(C)CCC2(C)C	–	Sprague-Dawley rat, male	oral, 100 mg/kg, 9 h, sesame oil vehicle	–	blood triglycerides	221 ± 99.6 mg/dL
CCC(C)n1c(C(=O)Nc2cnc(C(=O)NC)n(CC(C)C)c2=O)ncc(NC(=O)c2ncc(NC(=O)c3ccccc3)c(=O)n2Cc2ccc(OC)cc2)c1=O (stereo not drawn)	HPLC	Tween 20/ethanol/phosphate buffer	24 h, pH 2, 37 °C	–	decomposition	1.3%
COc1cc(-c2nc3ccccc3s2)cc(CN2CCN(CC(=O)OC(C)(C)C)CCN(CC(=O)OC(C)(C)C)CC2)c1O	UV-Vis pH titration	–	25 °C, ionic strength 0.1 M NaCl	–	pKa3	8.16
Cc1ccc(C(=O)N[C@@H](CO)CC(C)C)cc1CO	LC-MS	Sprague-Dawley rat, both sexes, rat liver microsomes	10 µM of parent drug, 10 min, pH 7.4, together with: NADPH	relative to: parent drug at time zero	metabolite peak area	0.2%
NCCCNc1nc2cc(Cl)ccc2n1Cc1ccccc1	metabolic stability	rat, liver microsomes	0.1 µM, 30 min, pH 7.4	–	compound remaining	93.3%
Nc1nc(-n2nnc3c2CCC2C(CO)C2CC3)nc2c1ncn2C1OC(CO)C(O)C1O (mixture of isomers)	fluorescence lifetime	methanol	–	–	fractional contribution τ3	0.05%
CC12CC(c3ccc(S(C)(=O)=O)cc3)C3=C4CCC(=O)C=C4CCC3C1CCC2(O)C(F)(F)C(F)(F)F (stereo not drawn)	–	human, fasted, plasma	oral, 4 mg, alone, without itraconazole	–	AUC(0-3 d), geometric mean	247 ng·h/mL
CCCCCC(O)C=CC1OC2OC(C2F)C1CC=CCCCC(=O)O (stereo not drawn)	–	phosphate buffer with DMSO	concentration not given, pH 7.40	–	hydrolysis half-life	480 h
CC(C)(C)NCC(SS(=O)(=O)O)c1ccccc1 (stereo not drawn)	–	Swiss Webster CFW mouse, female, plasma	intravenous, 15 mg/kg, from 0 h to last	–	MRT	6.96 min

Some of these lines once more:
Compound	test	system	conditions	scale	endpoint	value
COC(=O)c1ccc(CCc2cc3cc4nc(c(OC)c5[nH]c(cc6nc(cc2[nH]3)CC6(C)C)cc5CCCNC(=O)OC(C)(C)C)C(=O)C4(C)C)cc1	–	DMF	room temperature	–	Qy absorption maximum	679 nm
C=CC(=C)CC[C@]1(C)[C@H](C)C[C@H](O)[C@@]23C(=C[C@H](OC(=O)C(C)C)C[C@@H]12)[C@@H](OC(C)=O)O[C@H]3OC(C)=O	haemolysis	–	100 µM	–	haemolysis	17.5%
CCCC[C@H](NC(C)=O)C(=O)N[C@H]1CC(=O)NCCCC[C@@H](C(=O)N[C@@H](C(=O)N2CCC[C@@H]2C(N)=O)C(C)C)NC(=O)[C@H](Cc2c[nH]c3ccccc23)NC(=O)[C@H](CCCN=C(N)N)NC(=O)[C@@H](Cc2ccc3ccccc3c2)NC(=O)[C@@H]2CCCN2C1=O	–	healthy dogs, plasma	subcutaneous, 2.25 mg/kg per day, day 5, 2 h post-dose, median	–	plasma histamine	16.3 ng/mL
